Results from different studies.
Protocols differ between the studies behind these lines. ± marks the error that the study gave.

| SMILES | cell line | assay | conditions | IC50 |
| --- | --- | --- | --- | --- |
| COc1cccc2c1C(=O)c1c(O)c3c(c(O)c1C2=O)C[C@@](O)(C(=O)CO)C[C@@H]3O[C@H]1C[C@H](N)[C@H](O)[C@H](C)O1 | K562 compound-resistant | cell growth | 0 µM modulator | 1.96 ± 0.24 µM |
| CC(=O)c1c(O)c(C)c(O)c2c1OC1=CC(=O)C(C(C)=O)C(=O)C12C (single isomer, unassigned; (+)) | hepatocytes, iPSC-derived, line L3 | cell viability | 72 h | 31 µM |
| COc1ccc2[nH]c3c(C)c4ccnc(C(=O)N[C@H](C)CN(C)C)c4cc3c2c1 | HEK293T (G4C2)66-No-ATG-GFP reporter | RAN translation of r(G4C2)exp, fluorescence reporter | – | 0.8 µM |
| COc1ccc(C(=O)COc2cccc(N3C(=O)[C@@H]4[C@@H]5C=C[C@@H]([C@H]6C[C@@H]56)[C@@H]4C3=O)c2)cc1 | Mut6 cells | cell viability, CellTiter-Glo | 96 h | 1.12 µM |
| C=CC(=O)N1CCC([C@@H]2CCNc3c(C(N)=O)c(-c4ccc(Oc5ccccc5)cc4)nn32)CC1 | TMD8 | calcium flux, FLIPR | 1 h preincubation, added: anti-IgM | 0.0131 µM |
| COc1cc(N2CCC(N3CCN(C)CC3)CC2)ccc1Nc1ncc(Cl)c(Nc2ccccc2S(=O)(=O)C(C)C)n1 | PDX-derived rhabdomyosarcoma cells | cell growth | 3 days | 1.3 ± 0.3 µM |
| CCOC(=O)c1c(-c2ccc(OC)cc2)oc2ccc(OCc3cn(C[C@H]4O[C@H](O[C@H]5O[C@H](CO)[C@@H](O)[C@H](O)[C@H]5O)[C@H](O)[C@@H](O)[C@@H]4O)nn3)c(CN3CCCCC3)c12 | J774.A1 | cytotoxicity, resazurin | 18 h | > 200 µM |
| Cc1cc(Nc2ncc(Cl)c(Nc3ccccc3S(=O)(=O)C(C)C)n2)c(OC(C)C)cc1C1CCNCC1 | Ba/F3 EML4-ALK v1, no mutation | cell viability | – | 0.0774 µM |
| CCOc1cc([C@@H](CS(C)(=O)=O)N2C(=O)c3cccc(NC(C)=O)c3C2=O)ccc1OC | human PBMC | cytokine release, item: IFN-γ | 24 h, added: anti-CD28, and anti-CD3ε | 0.15 µM |
| COc1cccc2c1C(=O)c1c(O)c3c(c(O)c1C2=O)C[C@@](O)(C(=O)CO)C[C@@H]3O[C@H]1C[C@H](N)[C@H](O)[C@H](C)O1 | A2780 cisplatin-resistant | cytotoxicity, WST-1 | 72 h | 0.08 µM |
| CC#CC(=O)N1CCC[C@H]1c1nc(-c2ccc(C(=O)Nc3ccccn3)cc2)c2c(N)nccn12 | TMD8 | calcium flux, FLIPR | 4 h preincubation, added: anti-IgM | > 1 µM |
| OCc1ccc(-c2nn(Cc3ccccn3)c3cccnc23)o1 | SNU-1079 | cell viability, CellTiter-Glo | – | 2.94 µM |
| N#CC[C@H](C1CCCC1)n1cc(-c2ncnc3[nH]ccc23)cn1 | human PBMC | cytokine release, item: IL-10 | 24 h, added: anti-CD28, and anti-CD3ε | 0.0054 µM |
| CO[C@]12C[C@@H](COC(=O)c3cncc(Br)c3)CN(C)[C@@H]1Cc1cn(C)c3cccc2c13 | TW01 | MTT | 48 h | 19.1 ± 8.7 µM |
| CCCCN1C[C@H](O)[C@@H](O)[C@@H](O)[C@H]1CO | sample F patient fibroblasts | GlcCer level lowering, LC-MS/MS, item: GlcCer d18:1/24:1 | 216 h | 17 µM |
| C=CC(=O)N1CCC[C@@H](c2ccc(C(N)=O)c3[nH]ccc23)C1 | TMD8 | calcium flux, FLIPR | 2 h preincubation, added: anti-IgM | > 1 µM |
| C=CC(=O)N1CCC(Oc2cc3c(Nc4ccc(Cl)c(Cl)c4F)ncnc3cc2OC)CC1 | NCI-H2073 KI SVD | cell proliferation, CellTiter-Glo | 72 h | 0.000475 µM |
| Cc1c(C)c2c(c(C)c1O)CCC(C)(COc1ccc(CC3SC(=O)NC3=O)cc1)O2 (centres unmarked) | hepatocytes, iPSC-derived, line L3 | cell viability, RealTime-Glo MT | 72 h, differentiation day 23 | 80 µM |

| SMILES | cell line | assay | conditions | IC50 |
| --- | --- | --- | --- | --- |
| N#Cc1ccc(Oc2ccc3c(c2)COB3O)cc1 | human PBMC | cytokine release, item: IL-10 | 24 h, added: anti-CD28, and anti-CD3ε | 0.33 µM |
| COc1ccc2oc(C(=O)c3ccccc3)cc2c1-c1ccccc1 | FM3A | cell proliferation | 48 h | > 50 µM |
| Cc1nc(NC(=O)N2CCC[C@H]2C(N)=O)sc1-c1ccnc(C(C)(C)C(F)(F)F)c1 | AGS | growth rate inhibition, CellTiter-Glo | 120 h | 3.49 µM |
| C[C@@H]1CC[C@@H]([C@](O)(CNCc2ccc(F)cc2)COCc2ccc(F)cc2)[C@H](OCc2ccc(F)cc2)C1 | A2780 | cell growth, inhibitor, MTT | 72 h | 2.26 µM |
| COc1cccc(Cn2nc(-c3ccc(CO)o3)c3ccccc32)c1 | SNU-1079 | cell viability, CellTiter-Glo | – | 0.47 µM |
| C[C@H]1CN(C2COC2)CCN1c1ccc(Nc2cc(-c3ccnc(N4CCn5c(cc6c5CC(C)(C)C6)C4=O)c3CO)cn(C)c2=O)nc1 | TMD8 | calcium flux, FLIPR | 4 h preincubation, added: anti-IgM | 0.0262 µM |
| Cc1c(C)c2c(c(C)c1O)CCC(C)(COc1ccc(CC3SC(=O)NC3=O)cc1)O2 (centres unmarked) | mouse primary hepatocytes | cytotoxicity, MTT | 96 h, 3D culture | 145.5 ± 0.318 µM |
| COc1cnccc1Cn1nc(-c2ccc(CO)o2)c2ccccc21 | SNU-1079 | cell viability, CellTiter-Glo | – | 0.17 µM |
| COc1cc(OC)cc(C(=O)c2cc3c(-c4ccccc4)c(OC)ccc3o2)c1 | FM3A | cell proliferation | 48 h | > 50 µM |
| COc1ccc(C(=O)NCc2ccc(N3C(=O)[C@@H]4[C@@H]5C=C[C@@H]([C@H]6C[C@@H]56)[C@@H]4C3=O)cc2)cc1 | Mut6 cells | cell viability, CellTiter-Glo | 96 h | 1.96 µM |
| CCn1ncc2c1-c1cnc(N)c(c1)O[C@H](C)c1cc(F)ccc1-c1nn(C)nc1C2 | NCI-H3122, EML4-ALK v1 | cell viability | – | 0.011 µM |
| C[C@@H]1CC[C@@H]([C@](C)(O)CNCc2cccc(F)c2)[C@H](OCc2ccccc2)C1 | A2780 | cell growth, inhibitor, MTT | 72 h | 9.31 µM |
| Cc1cc(/C=C/C#N)cc(C)c1Nc1ccnc(Nc2ccc(C#N)cc2)n1 | TW01 | MTT | 48 h | 4.89 ± 2.1 µM |
| C[C@H](Nc1ccc2c(c1)OCCn1cc(N3C(=O)OC[C@H]3C(F)F)nc1-2)C(N)=O | KYSE-510 | growth rate inhibition, CellTiter-Glo | 120 h | 10 µM |
| CC1(C)COc2ccc(F)cc2CN2c3nc4c(cnn4cc3OC[C@H]2C(F)F)C(=O)N1 | Ba/F3 EML4-ALK v1, no mutation | cell viability | – | 0.0192 µM |
| COc1ccc(CNC[C@@](C)(O)[C@@H]2CC[C@@H](C)C[C@H]2OCc2ccccc2)cc1 | A2780 | cell growth, inhibitor, MTT | 72 h | 7.25 µM |
| OCc1ccc(-c2nn(Cc3cccnc3)c3cccnc23)o1 | SNU-1079 | cell viability, CellTiter-Glo | – | 8.29 µM |

A few entries again:
| SMILES | cell line | assay | conditions | IC50 |
| --- | --- | --- | --- | --- |
| CC1(C)COc2ccc(F)cc2CN2c3nc4c(cnn4cc3OC[C@H]2C(F)F)C(=O)N1 | Ba/F3 EML4-ALK v1, no mutation | cell viability | – | 0.0192 µM |
| C=CC(=O)N1CCC([C@@H]2CCNc3c(C(N)=O)c(-c4ccc(Oc5ccccc5)cc4)nn32)CC1 | TMD8 | calcium flux, FLIPR | 1 h preincubation, added: anti-IgM | 0.0131 µM |
